Measured values of several laboratories.
Lines come from different studies, so protocols differ. “And” joins repeats or separate records; there may be more than shown. ± gives the spread as reported.
PARP1: Poly [ADP-ribose] polymerase 1 (PARP1, Homo sapiens, UniProt P09874)
Sequence of UniProt P09874 (whole entry, looked up): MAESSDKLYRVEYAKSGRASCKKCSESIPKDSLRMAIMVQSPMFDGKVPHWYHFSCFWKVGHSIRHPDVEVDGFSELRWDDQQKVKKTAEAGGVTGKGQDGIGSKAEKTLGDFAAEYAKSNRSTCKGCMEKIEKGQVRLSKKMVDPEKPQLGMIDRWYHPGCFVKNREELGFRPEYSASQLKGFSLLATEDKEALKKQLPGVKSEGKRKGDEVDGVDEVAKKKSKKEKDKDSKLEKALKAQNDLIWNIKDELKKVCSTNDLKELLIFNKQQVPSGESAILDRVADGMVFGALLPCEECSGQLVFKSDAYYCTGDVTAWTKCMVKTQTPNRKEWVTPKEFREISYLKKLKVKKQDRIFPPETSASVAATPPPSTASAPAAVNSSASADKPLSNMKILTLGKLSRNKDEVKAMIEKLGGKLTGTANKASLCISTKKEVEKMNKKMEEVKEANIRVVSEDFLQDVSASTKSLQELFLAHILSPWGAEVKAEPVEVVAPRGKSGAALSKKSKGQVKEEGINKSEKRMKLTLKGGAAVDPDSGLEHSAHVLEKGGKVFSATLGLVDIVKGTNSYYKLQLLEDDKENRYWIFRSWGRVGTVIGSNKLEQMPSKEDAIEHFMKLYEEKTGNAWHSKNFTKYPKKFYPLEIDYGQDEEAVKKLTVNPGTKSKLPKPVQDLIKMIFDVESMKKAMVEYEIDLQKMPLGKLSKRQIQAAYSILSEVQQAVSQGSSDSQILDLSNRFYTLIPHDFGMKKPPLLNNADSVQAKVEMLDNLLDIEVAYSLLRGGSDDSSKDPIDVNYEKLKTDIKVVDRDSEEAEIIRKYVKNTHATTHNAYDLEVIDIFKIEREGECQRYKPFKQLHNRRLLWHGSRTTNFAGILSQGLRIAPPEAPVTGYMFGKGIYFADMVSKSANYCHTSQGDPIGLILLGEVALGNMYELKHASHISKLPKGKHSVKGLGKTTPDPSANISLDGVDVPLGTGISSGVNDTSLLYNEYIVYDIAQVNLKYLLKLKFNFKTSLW
Sequence of UniProt P9WFX1 (whole entry, looked up): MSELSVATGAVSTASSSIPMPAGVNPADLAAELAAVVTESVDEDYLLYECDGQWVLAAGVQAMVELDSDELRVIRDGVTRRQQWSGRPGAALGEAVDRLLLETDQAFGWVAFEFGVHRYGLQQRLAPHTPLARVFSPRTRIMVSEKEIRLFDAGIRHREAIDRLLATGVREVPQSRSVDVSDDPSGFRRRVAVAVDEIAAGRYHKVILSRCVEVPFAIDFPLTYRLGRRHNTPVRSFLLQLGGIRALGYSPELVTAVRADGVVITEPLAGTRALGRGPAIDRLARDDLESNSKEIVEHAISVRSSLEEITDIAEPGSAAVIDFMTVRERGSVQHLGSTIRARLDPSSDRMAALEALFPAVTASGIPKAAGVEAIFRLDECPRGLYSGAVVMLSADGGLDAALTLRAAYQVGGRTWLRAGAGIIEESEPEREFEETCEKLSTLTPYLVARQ
Sequence of UniProt O00311 (whole entry, looked up): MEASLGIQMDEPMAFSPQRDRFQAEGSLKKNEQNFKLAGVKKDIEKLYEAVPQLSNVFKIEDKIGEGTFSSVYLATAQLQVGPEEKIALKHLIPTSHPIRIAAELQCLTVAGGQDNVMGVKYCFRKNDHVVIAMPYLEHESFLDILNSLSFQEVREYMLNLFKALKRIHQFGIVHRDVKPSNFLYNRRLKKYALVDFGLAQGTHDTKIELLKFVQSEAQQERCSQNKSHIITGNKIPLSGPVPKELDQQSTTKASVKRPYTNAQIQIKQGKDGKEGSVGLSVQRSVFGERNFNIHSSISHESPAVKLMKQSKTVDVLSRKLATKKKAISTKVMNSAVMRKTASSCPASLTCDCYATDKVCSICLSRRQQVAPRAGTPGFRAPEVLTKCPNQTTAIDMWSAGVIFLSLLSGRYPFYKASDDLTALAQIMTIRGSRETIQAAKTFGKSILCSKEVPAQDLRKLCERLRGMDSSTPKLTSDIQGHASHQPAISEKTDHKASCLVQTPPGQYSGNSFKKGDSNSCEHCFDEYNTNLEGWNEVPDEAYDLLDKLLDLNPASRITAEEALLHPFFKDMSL
Sequence of UniProt P33527 (whole entry, looked up): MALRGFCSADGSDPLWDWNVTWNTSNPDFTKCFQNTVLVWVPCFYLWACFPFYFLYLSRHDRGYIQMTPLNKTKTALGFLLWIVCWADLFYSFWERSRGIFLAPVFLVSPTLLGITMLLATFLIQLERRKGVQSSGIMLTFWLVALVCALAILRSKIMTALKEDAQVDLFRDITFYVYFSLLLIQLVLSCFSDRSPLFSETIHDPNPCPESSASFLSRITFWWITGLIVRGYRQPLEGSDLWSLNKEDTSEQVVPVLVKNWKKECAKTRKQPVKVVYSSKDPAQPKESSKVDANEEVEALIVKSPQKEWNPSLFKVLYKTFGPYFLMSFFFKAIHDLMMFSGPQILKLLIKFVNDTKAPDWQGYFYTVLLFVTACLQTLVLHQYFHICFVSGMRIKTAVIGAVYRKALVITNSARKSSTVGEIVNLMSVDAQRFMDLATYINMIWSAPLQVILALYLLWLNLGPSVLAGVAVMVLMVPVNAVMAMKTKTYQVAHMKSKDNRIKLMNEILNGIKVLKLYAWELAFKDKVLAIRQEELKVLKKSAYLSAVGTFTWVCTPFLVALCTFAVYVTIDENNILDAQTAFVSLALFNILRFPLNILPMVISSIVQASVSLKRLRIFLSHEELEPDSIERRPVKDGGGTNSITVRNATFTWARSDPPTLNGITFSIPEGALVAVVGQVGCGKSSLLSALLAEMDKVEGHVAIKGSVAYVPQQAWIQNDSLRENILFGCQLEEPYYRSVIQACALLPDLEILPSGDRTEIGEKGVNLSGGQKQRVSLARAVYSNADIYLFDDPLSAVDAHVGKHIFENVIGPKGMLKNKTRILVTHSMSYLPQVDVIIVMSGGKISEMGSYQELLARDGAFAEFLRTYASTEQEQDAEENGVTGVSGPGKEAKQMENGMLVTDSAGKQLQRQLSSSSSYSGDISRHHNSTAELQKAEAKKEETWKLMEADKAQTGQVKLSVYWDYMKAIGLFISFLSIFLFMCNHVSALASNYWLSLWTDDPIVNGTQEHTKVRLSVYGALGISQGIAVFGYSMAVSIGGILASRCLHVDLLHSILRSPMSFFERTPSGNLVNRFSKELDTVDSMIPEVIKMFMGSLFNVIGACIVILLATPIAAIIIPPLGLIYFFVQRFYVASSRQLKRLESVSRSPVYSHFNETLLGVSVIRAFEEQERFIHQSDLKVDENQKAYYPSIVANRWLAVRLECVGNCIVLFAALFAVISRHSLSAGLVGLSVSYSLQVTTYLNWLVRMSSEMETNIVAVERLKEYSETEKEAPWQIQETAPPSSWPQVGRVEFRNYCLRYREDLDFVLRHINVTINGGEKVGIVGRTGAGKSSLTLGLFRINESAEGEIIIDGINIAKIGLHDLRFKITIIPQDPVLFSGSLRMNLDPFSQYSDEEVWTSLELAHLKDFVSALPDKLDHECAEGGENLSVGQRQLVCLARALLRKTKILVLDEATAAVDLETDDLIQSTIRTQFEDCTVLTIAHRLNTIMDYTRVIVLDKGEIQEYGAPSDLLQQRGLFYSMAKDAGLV
Sequence of UniProt O00519 (whole entry, looked up): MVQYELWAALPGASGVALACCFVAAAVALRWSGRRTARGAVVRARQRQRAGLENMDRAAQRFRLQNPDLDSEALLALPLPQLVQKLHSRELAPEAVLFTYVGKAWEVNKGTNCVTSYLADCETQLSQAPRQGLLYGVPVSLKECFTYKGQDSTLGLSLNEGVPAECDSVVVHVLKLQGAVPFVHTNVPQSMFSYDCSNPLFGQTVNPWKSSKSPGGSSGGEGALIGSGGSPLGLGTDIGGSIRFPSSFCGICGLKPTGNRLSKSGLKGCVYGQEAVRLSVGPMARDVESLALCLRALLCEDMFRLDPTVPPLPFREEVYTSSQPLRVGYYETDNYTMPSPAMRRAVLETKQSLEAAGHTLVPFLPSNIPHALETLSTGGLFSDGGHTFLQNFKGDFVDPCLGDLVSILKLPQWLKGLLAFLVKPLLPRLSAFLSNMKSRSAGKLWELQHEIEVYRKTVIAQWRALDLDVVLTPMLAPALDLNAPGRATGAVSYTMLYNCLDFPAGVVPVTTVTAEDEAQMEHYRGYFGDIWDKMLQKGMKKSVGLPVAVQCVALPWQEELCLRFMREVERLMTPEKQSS
Sequence of UniProt P27487 (whole entry, looked up): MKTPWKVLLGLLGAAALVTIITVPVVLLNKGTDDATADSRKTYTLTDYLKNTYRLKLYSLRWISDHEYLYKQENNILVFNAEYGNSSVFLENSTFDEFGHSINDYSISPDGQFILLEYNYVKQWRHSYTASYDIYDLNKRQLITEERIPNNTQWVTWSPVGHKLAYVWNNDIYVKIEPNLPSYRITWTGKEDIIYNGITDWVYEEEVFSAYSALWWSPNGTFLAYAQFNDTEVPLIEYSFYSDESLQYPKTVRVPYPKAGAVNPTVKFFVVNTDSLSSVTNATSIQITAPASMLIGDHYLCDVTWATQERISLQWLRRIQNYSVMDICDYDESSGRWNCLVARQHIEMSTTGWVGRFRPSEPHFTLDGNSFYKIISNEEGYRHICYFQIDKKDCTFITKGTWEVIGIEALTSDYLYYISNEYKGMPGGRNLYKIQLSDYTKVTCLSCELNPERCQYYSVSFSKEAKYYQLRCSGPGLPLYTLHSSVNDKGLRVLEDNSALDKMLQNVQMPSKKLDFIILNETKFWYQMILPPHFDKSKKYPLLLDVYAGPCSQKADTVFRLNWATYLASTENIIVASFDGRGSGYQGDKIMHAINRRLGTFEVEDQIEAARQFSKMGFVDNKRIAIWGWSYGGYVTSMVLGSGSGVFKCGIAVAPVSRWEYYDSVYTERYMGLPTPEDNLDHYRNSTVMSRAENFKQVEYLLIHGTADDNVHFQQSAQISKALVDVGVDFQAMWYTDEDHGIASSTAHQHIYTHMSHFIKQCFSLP

With `O=c1c2ccccc2nc(NN=Cc2ccccc2O)n1-c1ccccc1` the IC50 was 104 nM (PARP1; enzyme activity, inhibitor, absorbance).
`Nc1ncnc2c1ncn2[C@@H]1O[C@H](COP(=O)(O)OP(=O)(O)OP(=O)(O)O)[C@@H](O)[C@H]1O` has an IC50 of 850000 nM (5'-AMP-activated protein kinase subunit gamma-1, with alpha1 beta2 (PRKAG1, Homo sapiens, UniProt P54619); conformational change, AlphaScreen; α1β2γ1 AMPK).
With `CC(=O)n1c(=S)[nH]c2ccccc21` the IC50 was 5890 nM and 5900 nM (mbtI (Mycobacterium tuberculosis, UniProt P9WFX1); enzyme activity, inhibitor, fluorescence; pH 8).
For `O=c1oc2c(O)c(O)cc3c(=O)oc4c(O)c(O)cc1c4c23`, the IC50 was 770 nM and ~800 nM (Cell division cycle 7-related protein kinase, with DBF4 (CDC7, Homo sapiens, UniProt O00311); enzyme activity, inhibitor, ADP-Glo luminescence; added: ATP 12.5 µM).
`NC(=O)c1cccc2c1OC(c1ccccc1)C(=O)N2` (centres unmarked) gave an IC50 of about 2500 nM (PARP1).
With `C[C@H](CCC(=O)O)[C@H]1CC[C@H]2[C@@H]3CC[C@@H]4C[C@H](O)CC[C@]4(C)[C@H]3CC[C@]12C` the IC50 was 74000 nM (Ephrin type-B receptor 4 (EPHB4, Homo sapiens, UniProt P54760); phosphorylation in cells, inhibitor, ELISA).
`CN1CCN(C2=Nc3ccccc3Oc3ccc(Cl)cc32)CC1` has an IC50 of 8000 ± 1900 nM (Multidrug resistance-associated protein 1 (ABCC1, Homo sapiens, UniProt P33527); substrate efflux, inhibitor, flow cytometry; ABCC1-overexpressing SupT1-Vin cells; added: BODIPY-FL-prazosin 100 nM).
`[Zn+2]` has an IC50 of 9.25 ± 1.2 nM (Caspase-8 (CASP8, Homo sapiens, UniProt Q14790); enzyme activity, inhibitor; NTA-buffered free compound, added: LEHD-AMC substrate).
For `COc1ccc(-c2cc(=O)c3c(OC)c([C@@H]4O[C@H](C(=O)Nc5ccncc5)[C@@H](O)[C@H](O)[C@H]4O)c(OC)cc3o2)cc1OC`, the IC50 was 35600 nM (Glycogen synthase kinase-3 beta (GSK3B, Homo sapiens, UniProt P49841); enzyme activity, inhibitor, ADP detection).
The IC50 of `NC(=O)c1cccc2c1OC[C@H](CO)O2` is reported as over 5000 nM (PARP1).
`O=c1[nH]c2ccccc2n1C1CCN(CCCC(c2ccc(F)cc2)c2ccc(F)cc2)CC1` has an IC50 of over 114000 nM (Ubiquitin carboxyl-terminal hydrolase 2 (USP2, Homo sapiens, UniProt O75604)).
`NC(=O)c1cccc(-c2cc(OC(=O)NC3CCCCC3)ccc2O)c1` gave an IC50 of 17 nM (Fatty-acid amide hydrolase 1 (FAAH, Homo sapiens, UniProt O00519); enzyme activity, inhibitor, fluorescence; pH 8).
`C=CC(=O)N1CCC[C@@H](n2nc(-c3ccc(Oc4ccccc4)cc3)c3c(N)ncnc32)C1` has an IC50 of 4500 nM (Equilibrative nucleoside transporter 1 (SLC29A1, Homo sapiens, UniProt Q99808); transporter uptake, inhibitor, radiometric).
The IC50 of `C#Cc1cc2oc(=O)ccc2cc1OC` is reported as 48500 nM (Cytochrome P450 1A1 (CYP1A1, Homo sapiens, UniProt P04798); enzyme activity, inhibitor, fluorescence; 6 min, pH 7.6).
The IC50 of `O=C(O)c1cc2cc(Br)ccc2c(I)c1O` is reported as 3170 nM (Glutamate NMDA receptor; Grin1/Grin2a (Grin1/Grin2a, Rattus norvegicus, UniProt P35439+Q00959); ion current, two-electrode voltage clamp; oocytes).
`c1nc2c(NCc3ccc(CNCCCNC4CCCCC4)cn3)nc(N3CCNCC3)nc2[nH]1` gave an IC50 of 45.9 nM (C-X-C chemokine receptor type 4 (CXCR4, Homo sapiens, UniProt P61073); ligand displacement, radioligand; cell membranes).
With `CC(C)C1=CC2=C(CC1)[C@@]1(C)CCC[C@@](C)(C(=O)O)[C@@H]1CC2` the IC50 was 290 nM (Carbonic anhydrase 9 (CA9, Homo sapiens, UniProt Q16790); enzyme activity, inhibitor, stopped-flow; pH 7.4).
The IC50 of `Cc1nc2ccccc2n1Cc1ccc(C(=O)NO)cc1` is reported as 305 nM (Histone deacetylase 8 (HDAC8, Homo sapiens, UniProt Q9BY41); concentration not given).
For `Cn1c(=O)c(=O)n(C)c2cc(S(=O)(=O)NNC(=S)NC3CCCCC3)ccc21`, the IC50 was 0.055 nM (Dipeptidyl peptidase 4 (DPP4, Homo sapiens, UniProt P27487); enzyme activity, inhibitor, fluorescence).
For `[Cl-].[Cl-].[Zn+2]`, the IC50 was 3000 nM (Voltage-gated hydrogen channel 1 (HVCN1, Homo sapiens, UniProt Q96D96, D130H); proton current, inhibitor, whole-cell voltage clamp; human cells; pH 6.5, test pulse 120 mV).

Excerpt of the above:
With `C[C@H](CCC(=O)O)[C@H]1CC[C@H]2[C@@H]3CC[C@@H]4C[C@H](O)CC[C@]4(C)[C@H]3CC[C@]12C` the IC50 was 74000 nM (Ephrin type-B receptor 4 (EPHB4, Homo sapiens, UniProt P54760); phosphorylation in cells, inhibitor, ELISA).
`c1nc2c(NCc3ccc(CNCCCNC4CCCCC4)cn3)nc(N3CCNCC3)nc2[nH]1` gave an IC50 of 45.9 nM (C-X-C chemokine receptor type 4 (CXCR4, Homo sapiens, UniProt P61073); ligand displacement, radioligand; cell membranes).
